# Experimental data from different studies.
# Numbers after ± are the reported error.
# AR: Androgen receptor (AR, Homo sapiens, UniProt P10275)
# UniProt P10275, sequence (whole entry, looked up): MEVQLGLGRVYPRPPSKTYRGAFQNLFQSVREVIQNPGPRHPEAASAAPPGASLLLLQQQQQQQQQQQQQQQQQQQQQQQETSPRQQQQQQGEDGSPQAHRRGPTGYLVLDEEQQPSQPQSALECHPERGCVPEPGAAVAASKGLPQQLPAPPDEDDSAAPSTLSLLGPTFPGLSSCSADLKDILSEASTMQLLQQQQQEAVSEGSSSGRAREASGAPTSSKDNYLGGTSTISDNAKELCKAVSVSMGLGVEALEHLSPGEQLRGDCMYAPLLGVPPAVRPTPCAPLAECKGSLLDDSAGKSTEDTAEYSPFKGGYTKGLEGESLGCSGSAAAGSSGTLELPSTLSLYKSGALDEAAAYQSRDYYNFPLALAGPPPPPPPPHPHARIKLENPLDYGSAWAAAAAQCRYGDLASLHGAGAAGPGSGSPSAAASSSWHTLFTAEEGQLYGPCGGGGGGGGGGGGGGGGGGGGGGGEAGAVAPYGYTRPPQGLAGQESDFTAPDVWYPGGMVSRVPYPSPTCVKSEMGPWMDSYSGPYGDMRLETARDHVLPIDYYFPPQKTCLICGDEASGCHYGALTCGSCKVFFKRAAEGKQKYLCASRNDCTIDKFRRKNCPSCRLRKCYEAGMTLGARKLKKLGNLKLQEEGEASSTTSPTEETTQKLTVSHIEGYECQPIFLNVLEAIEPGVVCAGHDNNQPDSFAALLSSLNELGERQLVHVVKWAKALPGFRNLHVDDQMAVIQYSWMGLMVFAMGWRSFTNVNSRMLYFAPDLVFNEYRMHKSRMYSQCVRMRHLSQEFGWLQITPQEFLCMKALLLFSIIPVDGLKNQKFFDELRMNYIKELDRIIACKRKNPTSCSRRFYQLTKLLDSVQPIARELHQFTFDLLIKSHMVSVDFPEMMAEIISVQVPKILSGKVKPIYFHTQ
# Voltage-gated sodium channel: Voltage-gated sodium channel (Musca domestica, UniProt Q25439)
# GABA-A receptor; alpha-1/beta-2/gamma-2: GABA-A receptor; alpha-1/beta-2/gamma-2 (Rattus norvegicus, UniProt P18508+P62813+P63138)
# UniProt P63138, sequence (whole entry, looked up): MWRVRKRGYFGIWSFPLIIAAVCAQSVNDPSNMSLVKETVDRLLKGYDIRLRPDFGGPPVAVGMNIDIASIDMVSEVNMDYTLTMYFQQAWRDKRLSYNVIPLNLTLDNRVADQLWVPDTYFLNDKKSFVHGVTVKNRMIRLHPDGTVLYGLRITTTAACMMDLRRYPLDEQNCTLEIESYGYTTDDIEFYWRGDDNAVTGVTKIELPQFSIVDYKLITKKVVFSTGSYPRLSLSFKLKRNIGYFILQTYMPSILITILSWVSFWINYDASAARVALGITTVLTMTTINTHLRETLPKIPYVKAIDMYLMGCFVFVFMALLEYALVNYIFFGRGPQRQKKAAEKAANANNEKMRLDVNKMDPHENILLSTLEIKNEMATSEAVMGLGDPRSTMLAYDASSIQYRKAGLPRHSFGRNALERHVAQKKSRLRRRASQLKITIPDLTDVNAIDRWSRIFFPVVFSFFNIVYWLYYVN
# UniProt P18508, sequence (whole entry, looked up): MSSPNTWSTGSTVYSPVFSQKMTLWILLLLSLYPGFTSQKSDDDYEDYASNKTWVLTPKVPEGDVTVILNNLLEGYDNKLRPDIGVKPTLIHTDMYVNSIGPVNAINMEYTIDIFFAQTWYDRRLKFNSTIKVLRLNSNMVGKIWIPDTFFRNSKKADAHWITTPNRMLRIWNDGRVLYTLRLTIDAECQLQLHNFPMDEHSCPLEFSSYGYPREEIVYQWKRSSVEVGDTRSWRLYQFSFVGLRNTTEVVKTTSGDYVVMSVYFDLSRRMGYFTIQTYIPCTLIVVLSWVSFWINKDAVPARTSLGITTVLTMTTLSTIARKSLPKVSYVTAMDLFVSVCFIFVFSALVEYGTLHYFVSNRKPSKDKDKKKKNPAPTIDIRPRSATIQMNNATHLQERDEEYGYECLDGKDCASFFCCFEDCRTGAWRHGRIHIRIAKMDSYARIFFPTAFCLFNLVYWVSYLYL
# UniProt P62813, sequence (whole entry, looked up): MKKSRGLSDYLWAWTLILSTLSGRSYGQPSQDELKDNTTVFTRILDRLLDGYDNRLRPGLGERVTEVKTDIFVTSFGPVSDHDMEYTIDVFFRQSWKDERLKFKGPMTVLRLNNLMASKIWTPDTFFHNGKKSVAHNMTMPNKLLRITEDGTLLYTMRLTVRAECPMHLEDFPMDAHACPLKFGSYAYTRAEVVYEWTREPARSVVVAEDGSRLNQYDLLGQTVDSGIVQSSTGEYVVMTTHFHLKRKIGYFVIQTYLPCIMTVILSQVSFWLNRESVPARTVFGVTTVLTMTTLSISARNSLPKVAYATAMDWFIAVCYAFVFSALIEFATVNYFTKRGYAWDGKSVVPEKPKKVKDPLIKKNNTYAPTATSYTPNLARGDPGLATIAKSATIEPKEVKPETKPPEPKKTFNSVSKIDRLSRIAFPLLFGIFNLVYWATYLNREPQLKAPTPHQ
# BCHE: Cholinesterase (BCHE, Homo sapiens, UniProt P06276)
# UniProt P06276, sequence (whole entry, looked up): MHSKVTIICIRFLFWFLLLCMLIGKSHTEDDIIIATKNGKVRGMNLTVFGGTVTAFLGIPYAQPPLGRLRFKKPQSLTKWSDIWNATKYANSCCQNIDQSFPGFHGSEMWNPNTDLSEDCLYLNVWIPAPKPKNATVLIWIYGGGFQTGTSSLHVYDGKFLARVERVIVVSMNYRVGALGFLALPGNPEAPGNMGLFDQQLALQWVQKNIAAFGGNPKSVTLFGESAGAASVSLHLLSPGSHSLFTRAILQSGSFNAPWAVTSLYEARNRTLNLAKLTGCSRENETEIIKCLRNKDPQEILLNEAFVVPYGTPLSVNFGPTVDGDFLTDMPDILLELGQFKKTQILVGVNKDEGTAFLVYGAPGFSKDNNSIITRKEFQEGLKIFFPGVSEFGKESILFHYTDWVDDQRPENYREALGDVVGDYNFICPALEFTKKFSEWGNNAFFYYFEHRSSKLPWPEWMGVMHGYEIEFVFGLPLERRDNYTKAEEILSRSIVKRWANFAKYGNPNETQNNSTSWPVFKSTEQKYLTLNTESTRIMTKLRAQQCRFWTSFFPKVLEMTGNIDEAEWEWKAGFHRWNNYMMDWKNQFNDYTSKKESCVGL
# UniProt Q86XQ3, sequence (whole entry, looked up): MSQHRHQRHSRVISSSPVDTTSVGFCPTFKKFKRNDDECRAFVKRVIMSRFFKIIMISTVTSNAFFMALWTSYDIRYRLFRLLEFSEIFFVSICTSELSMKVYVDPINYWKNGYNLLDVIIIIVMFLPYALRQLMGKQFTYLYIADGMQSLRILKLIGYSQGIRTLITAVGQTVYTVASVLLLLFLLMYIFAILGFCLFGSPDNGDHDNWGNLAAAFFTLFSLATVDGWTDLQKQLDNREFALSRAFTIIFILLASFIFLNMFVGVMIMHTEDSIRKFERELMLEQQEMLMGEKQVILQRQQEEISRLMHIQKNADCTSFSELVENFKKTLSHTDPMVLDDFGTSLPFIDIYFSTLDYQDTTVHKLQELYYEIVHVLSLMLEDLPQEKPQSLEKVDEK
# UniProt O43242, sequence (whole entry, looked up): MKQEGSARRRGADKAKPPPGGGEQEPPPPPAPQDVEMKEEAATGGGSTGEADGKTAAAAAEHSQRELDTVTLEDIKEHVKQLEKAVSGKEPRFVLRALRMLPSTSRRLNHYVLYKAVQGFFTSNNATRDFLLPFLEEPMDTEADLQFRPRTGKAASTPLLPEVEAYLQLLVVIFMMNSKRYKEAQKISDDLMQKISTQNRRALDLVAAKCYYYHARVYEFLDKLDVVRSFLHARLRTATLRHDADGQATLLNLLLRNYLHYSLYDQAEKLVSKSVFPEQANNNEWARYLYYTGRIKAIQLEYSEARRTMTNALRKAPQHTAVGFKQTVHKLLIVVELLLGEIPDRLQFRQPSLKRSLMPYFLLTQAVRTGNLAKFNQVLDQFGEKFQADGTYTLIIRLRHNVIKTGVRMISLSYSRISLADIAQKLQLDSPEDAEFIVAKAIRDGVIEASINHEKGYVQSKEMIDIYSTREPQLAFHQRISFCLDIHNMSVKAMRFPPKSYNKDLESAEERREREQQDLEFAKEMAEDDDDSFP
# UniProt P08173, sequence (whole entry, looked up): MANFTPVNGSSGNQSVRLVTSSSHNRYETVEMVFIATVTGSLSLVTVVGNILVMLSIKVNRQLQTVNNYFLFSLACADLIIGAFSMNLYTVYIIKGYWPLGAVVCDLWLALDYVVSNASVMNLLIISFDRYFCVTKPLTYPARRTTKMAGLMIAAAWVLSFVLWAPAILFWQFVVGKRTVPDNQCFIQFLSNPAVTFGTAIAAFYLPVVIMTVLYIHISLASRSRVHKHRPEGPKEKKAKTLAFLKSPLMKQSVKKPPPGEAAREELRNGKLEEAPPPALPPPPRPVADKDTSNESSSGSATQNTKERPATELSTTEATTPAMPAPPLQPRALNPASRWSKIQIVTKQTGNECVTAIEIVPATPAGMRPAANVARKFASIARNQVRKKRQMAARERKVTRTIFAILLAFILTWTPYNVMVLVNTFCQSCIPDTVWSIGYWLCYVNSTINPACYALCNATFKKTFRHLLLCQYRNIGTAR
# UniProt Q7RTX7, sequence (whole entry, looked up): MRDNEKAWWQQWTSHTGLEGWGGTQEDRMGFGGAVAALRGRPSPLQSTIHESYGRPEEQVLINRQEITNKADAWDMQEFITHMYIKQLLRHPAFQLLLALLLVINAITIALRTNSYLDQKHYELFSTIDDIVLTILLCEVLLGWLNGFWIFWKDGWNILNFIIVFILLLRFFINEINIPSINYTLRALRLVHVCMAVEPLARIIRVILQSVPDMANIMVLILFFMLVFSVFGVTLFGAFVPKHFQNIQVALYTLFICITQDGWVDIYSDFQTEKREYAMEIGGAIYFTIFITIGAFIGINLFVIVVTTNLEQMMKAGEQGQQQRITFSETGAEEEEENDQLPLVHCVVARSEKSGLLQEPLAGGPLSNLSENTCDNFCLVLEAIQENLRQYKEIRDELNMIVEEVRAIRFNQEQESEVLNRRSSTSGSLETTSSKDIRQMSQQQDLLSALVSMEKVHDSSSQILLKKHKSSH
Structure (SMILES),target,assay,system,conditions,how to read,quantity,result
C[C@]12C[C@@H](O)[C@H]3[C@@H](CCC4=CC(=O)CC[C@@]43C)[C@@H]1CC[C@@H]2O,AR,cell-based,,,,EC50,21000 nM
COc1cc(C(=O)N2CC[C@@H](O)[C@@H](N)C2)cc2nc(-c3cc4ccccc4n3CC3CC3)n(C)c12,"Alpha-2C adrenergic receptor (ADRA2C, Homo sapiens, UniProt P18825)","agonist, TR-FRET",,,,EC50,> 31600 nM
CCCCC/C=C\C/C=C\C/C=C\C/C=C\CCCC(=O)NCCO,"Calcium-activated potassium channel subunit alpha-1 (KCNMA1, Homo sapiens, UniProt Q12791)","channel open probability, activator, inside-out patch clamp",,,,EC50,1100 nM
C=C(C)C1CCC(CO)=CC1c1c(O)cc(CCCCC)cc1O (centres unmarked),"CatSper channel complex (Homo sapiens, UniProt Q7RTX7+Q86XQ3+Q8NEC5+Q96P56)","intracellular Ca2+ increase, agonist, Fluo-4 fluorimetry",human sperm,,,EC50,1800 ± 1400 nM
CC1(C)C(C=C(Cl)Cl)C1C(=O)OC(C#N)c1cccc(Oc2ccccc2)c1 (centres unmarked),Voltage-gated sodium channel,"membrane potential, activator, FLIPR",HEK293,,,EC50,38.9 nM
C[C@@H]1NC(=O)N[C@@H]1CCCCCC(=O)N1CCN(C(=O)c2ccc(/C=C/c3n[nH]c4cc(-c5ccc(S(=O)(=O)F)cc5)ccc34)cc2)CC1,"Tyrosine-protein kinase ABL1 (ABL1, Homo sapiens, UniProt P00519)","covalent labeling, streptavidin Western blot",recombinant protein,1 h,,EC50,600 nM
NCc1cc(=O)[nH]o1,GABA-A receptor; alpha-1/beta-2/gamma-2,"chloride current, agonist, whole-cell patch clamp",HEK293 expressing GABAA,30 s,,EC50,180 nM
Cc1cc(N2CCNCC2)nc2ccccc12,"Muscarinic acetylcholine receptor M4 (CHRM4, Homo sapiens, UniProt P08173)","ERK1/2 phosphorylation, agonist",CHO cells,,,EC50,> 20000 nM
CC1(C)[C@H](C(=O)O[C@H](C#N)c2cccc(Oc3ccccc3)c2)[C@@H]1C=C(Br)Br,Voltage-gated sodium channel,"membrane potential, activator, FLIPR",HEK293,,,EC50,5.25 nM
COc1cc(O)ccc1OCCNCC(O)COc1cccc2[nH]c3ccccc3c12 (centres unmarked),BCHE,"enzyme activity, fluorescence",,,,IC50,2440 ± 1240 nM
C[C@]12CC[C@H]3[C@@H](CCC4=CC(=O)CC[C@@]43C)[C@@H]1[C@H](O)C[C@@H]2O,AR,cell-based,,,,EC50,160000 nM
Cc1c[nH]c2ccccc12,"GPRor10 (Aedes aegypti, UniProt Q177X3)","ion current, agonist, two-electrode voltage clamp",Xenopus oocytes,,,EC50,160 nM
C[C@H]1CN(c2n[nH]c3nc(N[C@H]4CC[C@H](NS(=O)(=O)CCC(F)(F)F)CC4)ncc23)CCO1,"26S proteasome non-ATPase regulatory subunit 3 (PSMD3, Homo sapiens, UniProt O43242)","inhibitor, Kinobeads competition profiling",,0.032 µM,reference: vehicle,relative abundance,0.95
CCCCCCCCCCCCCC(=O)O[C@@H]1[C@@H](C)[C@@]2(O)[C@@H](C=C(CO)C[C@]3(O)C(=O)C(C)=C[C@@H]23)[C@@H]2C(C)(C)[C@]12OC(C)=O,"Adenosine receptor A2b (ADORA2B, Homo sapiens, UniProt P29275)","cAMP accumulation, agonist",HEK293 expressing A2B receptor,20 min,,EC50,42.8 ± 12.3 nM
CC1(C)[C@H](C=C(Cl)Cl)[C@H]1C(=O)OCc1c(F)c(F)cc(F)c1F,Voltage-gated sodium channel,"membrane potential, activator, FLIPR",HEK293,,,EC50,1780 nM
CCCN(CCC)CCc1c[nH]c2ccccc12,BCHE,inhibitor,,with Triton,,IC50,10300 ± 5040 nM
CC[C@H](C)[C@H]1O[C@]2(C=C[C@@H]1C)C[C@@H]1C[C@@H](C/C=C(\C)[C@@H](O[C@H]3C[C@H](OC)[C@@H](O[C@H]4C[C@H](OC)[C@@H](O)[C@H](C)O4)[C@H](C)O3)[C@@H](C)/C=C/C=C3\CO[C@@H]4[C@H](O)C(C)=C[C@@H](C(=O)O1)[C@]34O)O2,GABA-A receptor; alpha-1/beta-2/gamma-2,"membrane potential, agonist, QP-DHM fluorescence",HEK293 expressing GABAA,,,EC50,1300 nM

# For quick reference, copied from above:
Structure (SMILES),target,assay,system,conditions,how to read,quantity,result
C=C(C)C1CCC(CO)=CC1c1c(O)cc(CCCCC)cc1O (centres unmarked),"CatSper channel complex (Homo sapiens, UniProt Q7RTX7+Q86XQ3+Q8NEC5+Q96P56)","intracellular Ca2+ increase, agonist, Fluo-4 fluorimetry",human sperm,,,EC50,1800 ± 1400 nM
C[C@]12CC[C@H]3[C@@H](CCC4=CC(=O)CC[C@@]43C)[C@@H]1[C@H](O)C[C@@H]2O,AR,cell-based,,,,EC50,160000 nM
